# Experimental data of several laboratories.
# Every numbered part comes from another study and shows a few of its results, in no order. Several values in a cell are separate wells, animals, samples, runs or records.
# Sequence of UniProt Q09013 (whole entry, looked up): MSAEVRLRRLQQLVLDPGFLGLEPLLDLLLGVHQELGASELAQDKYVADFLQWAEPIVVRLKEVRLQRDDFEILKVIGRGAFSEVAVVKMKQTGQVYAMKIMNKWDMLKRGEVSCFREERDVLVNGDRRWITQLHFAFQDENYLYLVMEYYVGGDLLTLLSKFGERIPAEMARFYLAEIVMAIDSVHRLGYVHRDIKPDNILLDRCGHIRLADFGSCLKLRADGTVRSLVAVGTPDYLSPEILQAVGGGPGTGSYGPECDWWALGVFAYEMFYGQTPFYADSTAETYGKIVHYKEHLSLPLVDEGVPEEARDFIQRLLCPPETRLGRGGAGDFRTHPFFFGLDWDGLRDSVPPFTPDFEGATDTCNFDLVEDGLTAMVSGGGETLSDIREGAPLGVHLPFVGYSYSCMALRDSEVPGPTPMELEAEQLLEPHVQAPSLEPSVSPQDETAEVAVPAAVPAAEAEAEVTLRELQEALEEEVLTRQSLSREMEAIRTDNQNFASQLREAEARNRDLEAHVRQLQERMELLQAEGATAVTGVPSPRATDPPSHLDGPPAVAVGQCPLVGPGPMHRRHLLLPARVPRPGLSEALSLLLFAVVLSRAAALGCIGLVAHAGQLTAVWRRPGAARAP
# Sequence of UniProt Q8NI60 (whole entry, looked up): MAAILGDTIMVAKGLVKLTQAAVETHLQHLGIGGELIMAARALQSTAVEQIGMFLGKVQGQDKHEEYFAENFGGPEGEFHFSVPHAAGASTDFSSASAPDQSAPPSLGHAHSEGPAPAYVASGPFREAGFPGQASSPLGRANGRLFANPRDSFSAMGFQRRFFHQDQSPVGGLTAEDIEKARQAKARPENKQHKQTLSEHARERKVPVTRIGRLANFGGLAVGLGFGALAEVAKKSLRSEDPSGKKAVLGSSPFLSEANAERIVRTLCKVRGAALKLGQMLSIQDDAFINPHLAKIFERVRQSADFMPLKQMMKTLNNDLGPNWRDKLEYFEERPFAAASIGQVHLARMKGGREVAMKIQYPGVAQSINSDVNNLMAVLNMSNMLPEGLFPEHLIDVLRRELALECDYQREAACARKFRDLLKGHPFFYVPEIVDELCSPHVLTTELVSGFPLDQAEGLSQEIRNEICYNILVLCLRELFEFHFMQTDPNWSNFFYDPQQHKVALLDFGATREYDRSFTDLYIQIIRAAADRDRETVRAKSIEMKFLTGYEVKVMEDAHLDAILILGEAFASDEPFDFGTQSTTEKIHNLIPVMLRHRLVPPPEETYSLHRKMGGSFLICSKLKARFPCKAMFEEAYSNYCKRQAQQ
# Sequence of UniProt O75582 (whole entry, looked up): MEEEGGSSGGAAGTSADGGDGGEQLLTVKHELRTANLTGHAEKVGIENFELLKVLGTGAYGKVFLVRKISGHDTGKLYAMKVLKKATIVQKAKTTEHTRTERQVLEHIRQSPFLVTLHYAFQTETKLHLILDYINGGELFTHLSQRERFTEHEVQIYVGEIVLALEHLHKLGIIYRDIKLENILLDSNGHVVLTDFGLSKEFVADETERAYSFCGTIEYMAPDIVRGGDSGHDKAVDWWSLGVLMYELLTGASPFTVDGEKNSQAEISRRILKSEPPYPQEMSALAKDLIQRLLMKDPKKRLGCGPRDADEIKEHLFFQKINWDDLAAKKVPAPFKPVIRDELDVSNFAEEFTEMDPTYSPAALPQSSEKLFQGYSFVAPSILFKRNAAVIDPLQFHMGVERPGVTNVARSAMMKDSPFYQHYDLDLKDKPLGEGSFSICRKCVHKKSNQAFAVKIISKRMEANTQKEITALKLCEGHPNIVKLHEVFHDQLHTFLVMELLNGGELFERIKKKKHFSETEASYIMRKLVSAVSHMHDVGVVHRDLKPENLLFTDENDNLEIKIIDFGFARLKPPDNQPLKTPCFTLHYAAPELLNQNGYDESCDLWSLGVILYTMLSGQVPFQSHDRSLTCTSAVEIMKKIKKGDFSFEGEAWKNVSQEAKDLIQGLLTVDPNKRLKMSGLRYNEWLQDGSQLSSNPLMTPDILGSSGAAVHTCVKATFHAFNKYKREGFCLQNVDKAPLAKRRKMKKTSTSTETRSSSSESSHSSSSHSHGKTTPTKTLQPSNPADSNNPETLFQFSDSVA
# Sequence of UniProt P49760 (whole entry, looked up): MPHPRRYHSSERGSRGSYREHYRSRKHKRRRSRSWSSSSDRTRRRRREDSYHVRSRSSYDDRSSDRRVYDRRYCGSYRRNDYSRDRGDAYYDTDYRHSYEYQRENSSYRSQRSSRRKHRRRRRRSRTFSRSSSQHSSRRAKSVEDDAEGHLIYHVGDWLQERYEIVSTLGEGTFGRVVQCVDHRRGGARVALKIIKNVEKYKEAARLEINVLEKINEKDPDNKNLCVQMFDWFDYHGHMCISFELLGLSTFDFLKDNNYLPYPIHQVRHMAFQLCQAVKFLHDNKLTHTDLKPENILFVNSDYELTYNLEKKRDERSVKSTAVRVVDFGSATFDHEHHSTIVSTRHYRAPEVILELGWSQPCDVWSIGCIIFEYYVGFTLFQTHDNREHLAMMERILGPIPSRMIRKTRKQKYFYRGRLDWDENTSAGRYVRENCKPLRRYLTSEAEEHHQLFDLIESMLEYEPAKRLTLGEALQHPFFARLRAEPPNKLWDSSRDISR
# Sequence of UniProt P45984 (whole entry, looked up): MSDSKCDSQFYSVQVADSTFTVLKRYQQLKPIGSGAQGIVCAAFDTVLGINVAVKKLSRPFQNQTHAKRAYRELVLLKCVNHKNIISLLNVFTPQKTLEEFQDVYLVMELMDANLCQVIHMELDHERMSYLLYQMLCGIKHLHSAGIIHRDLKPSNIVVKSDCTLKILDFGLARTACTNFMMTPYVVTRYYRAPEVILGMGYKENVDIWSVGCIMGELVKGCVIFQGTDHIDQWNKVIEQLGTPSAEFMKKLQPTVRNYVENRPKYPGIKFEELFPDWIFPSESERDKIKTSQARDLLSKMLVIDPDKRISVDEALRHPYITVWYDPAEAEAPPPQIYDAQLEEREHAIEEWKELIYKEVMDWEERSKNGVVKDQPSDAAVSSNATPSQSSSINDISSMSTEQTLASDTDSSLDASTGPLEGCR

# Set 1
# SMILES: Cc1ncc(-c2cc3c(N)c(-c4c(C)ccc(O)c4C)cnc3[nH]2)cn1
# Target: Membrane-associated tyrosine- and threonine-specific cdc2-inhibitory kinase (PKMYT1, Homo sapiens, UniProt Q99640)
# Sequence of UniProt Q99640 (whole entry, looked up): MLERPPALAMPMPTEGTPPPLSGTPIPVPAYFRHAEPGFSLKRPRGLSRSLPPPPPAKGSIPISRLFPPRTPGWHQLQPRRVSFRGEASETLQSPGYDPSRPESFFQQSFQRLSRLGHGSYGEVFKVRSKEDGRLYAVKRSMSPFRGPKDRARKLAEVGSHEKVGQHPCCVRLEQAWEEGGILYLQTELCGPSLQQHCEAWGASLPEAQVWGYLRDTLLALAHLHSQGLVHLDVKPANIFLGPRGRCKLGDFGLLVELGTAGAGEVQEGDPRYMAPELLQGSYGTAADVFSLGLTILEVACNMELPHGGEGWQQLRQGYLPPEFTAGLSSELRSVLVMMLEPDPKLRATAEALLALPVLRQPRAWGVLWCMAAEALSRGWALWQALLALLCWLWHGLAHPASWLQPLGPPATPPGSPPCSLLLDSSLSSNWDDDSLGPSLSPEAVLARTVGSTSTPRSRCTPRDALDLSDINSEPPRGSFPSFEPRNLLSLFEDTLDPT
# Effect on: binding
# Method: HTRF
conditions,inhibition
0.051 nM,-4.33% and -10.4%
0.15 nM,-13.1% and -11.3%
333.33 nM,87.4% and 87.1%
4.12 nM,-4.99% and 1.89%

# Set 2
# SMILES: C[C@@H]1CN(c2ccc(-c3cc(C(=O)NCCOCCOCCOCCOCCOCCOCCNC(=O)/C=C/c4[nH]cc(C(=O)N[C@@H](CC(N)=O)c5ccc(F)c(Cl)c5)c4-c4ccc(Cl)cc4F)ccc3F)cc2NC(=O)c2ccc(F)cc2C(F)(F)F)C[C@H](C)N1C
# Effect on: thermal unfolding
# Method: differential scanning fluorimetry
# Concentration: 5.5 µM
# Direction: higher = more unfolded
# WDR5: WD repeat-containing protein 5 (WDR5, Homo sapiens, UniProt P61964)
# DCAF1: DDB1- and CUL4-associated factor 1 (DCAF1, Homo sapiens, UniProt Q9Y4B6)
# Sequence of UniProt Q9Y4B6 (whole entry, looked up): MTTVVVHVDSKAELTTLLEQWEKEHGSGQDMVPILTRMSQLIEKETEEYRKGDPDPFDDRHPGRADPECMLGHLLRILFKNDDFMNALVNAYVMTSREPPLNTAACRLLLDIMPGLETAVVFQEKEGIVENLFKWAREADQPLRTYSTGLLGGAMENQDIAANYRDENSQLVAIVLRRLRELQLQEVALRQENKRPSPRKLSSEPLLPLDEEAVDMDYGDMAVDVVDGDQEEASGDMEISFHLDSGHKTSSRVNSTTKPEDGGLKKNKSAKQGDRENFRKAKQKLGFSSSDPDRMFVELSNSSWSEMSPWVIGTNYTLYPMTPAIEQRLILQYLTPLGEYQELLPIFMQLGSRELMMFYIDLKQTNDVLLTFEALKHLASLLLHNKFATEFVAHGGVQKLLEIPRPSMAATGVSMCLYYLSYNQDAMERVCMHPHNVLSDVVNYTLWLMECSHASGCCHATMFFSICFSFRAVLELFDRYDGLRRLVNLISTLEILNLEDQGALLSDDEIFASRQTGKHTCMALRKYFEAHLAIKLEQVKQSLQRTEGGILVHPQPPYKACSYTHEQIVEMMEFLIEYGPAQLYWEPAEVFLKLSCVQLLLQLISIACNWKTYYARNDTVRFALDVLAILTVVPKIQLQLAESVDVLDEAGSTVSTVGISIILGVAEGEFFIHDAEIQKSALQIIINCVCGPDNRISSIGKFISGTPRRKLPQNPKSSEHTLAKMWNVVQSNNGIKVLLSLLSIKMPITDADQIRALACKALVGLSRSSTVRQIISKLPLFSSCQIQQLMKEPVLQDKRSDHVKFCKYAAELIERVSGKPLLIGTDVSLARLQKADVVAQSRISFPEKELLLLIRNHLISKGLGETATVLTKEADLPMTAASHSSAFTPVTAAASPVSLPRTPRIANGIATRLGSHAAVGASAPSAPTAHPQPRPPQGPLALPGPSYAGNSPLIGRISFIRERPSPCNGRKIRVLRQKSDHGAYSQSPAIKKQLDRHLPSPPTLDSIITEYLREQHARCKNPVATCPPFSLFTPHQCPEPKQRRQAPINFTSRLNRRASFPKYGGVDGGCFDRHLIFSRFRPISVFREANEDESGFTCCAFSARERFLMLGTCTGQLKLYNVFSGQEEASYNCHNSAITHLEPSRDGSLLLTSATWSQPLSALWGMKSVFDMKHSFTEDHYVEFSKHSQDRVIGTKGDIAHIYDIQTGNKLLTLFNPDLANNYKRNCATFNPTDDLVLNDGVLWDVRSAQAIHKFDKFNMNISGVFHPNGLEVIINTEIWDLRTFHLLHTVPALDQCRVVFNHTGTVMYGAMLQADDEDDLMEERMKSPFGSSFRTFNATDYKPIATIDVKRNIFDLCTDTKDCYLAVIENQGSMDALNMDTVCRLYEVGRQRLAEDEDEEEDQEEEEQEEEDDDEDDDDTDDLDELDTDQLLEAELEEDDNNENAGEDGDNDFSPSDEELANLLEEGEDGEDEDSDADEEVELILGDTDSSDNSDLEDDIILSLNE
target,conditions,SYPRO Orange fluorescence
WDR5,74.41 °C,46100 a.u.
DCAF1,63.41 °C,54100 a.u.
WDR5,37.6 °C,13800 a.u.
WDR5,65.01 °C,16300 a.u.
WDR5,62.81 °C,15400 a.u.
WDR5,61.61 °C,15200 a.u.
DCAF1,79.01 °C,40600 a.u.
WDR5,78.61 °C,61900 a.u.
DCAF1,32.8 °C,9220 a.u.
WDR5,34.2 °C,13800 a.u.
WDR5,91.61 °C,52400 a.u.

# Set 3
# SMILES: CC[C@@]1(c2cccc(C(F)(F)F)c2)C2=C(Nc3n[nH]cc31)[C@H](F)C(C)(C)CC2=O (single isomer, unassigned)
# Concentration: 1 µM
target,test,how to read,remaining binding [%]
"Dual specificity protein kinase CLK2 (CLK2, Homo sapiens, UniProt P49760)","binding, competition with immobilised ligand",,91
"Myotonin-protein kinase (DMPK, Homo sapiens, UniProt Q09013)","binding, competition with immobilised ligand",,77
"Ribosomal protein S6 kinase alpha-5, C-terminal kinase domain (RPS6KA5, Homo sapiens, UniProt O75582)","kinase binding, KINOMEscan",reference: DMSO control,90
"FLT3 ITD/F691L, human",KINOMEscan,,100
"Tyrosine-protein kinase ABL1, non-phosphorylated (ABL1, Homo sapiens, UniProt P00519, H396P)","kinase binding, KINOMEscan",reference: DMSO control,48
"Phosphatidylinositol 4,5-bisphosphate 3-kinase catalytic subunit alpha isoform (PIK3CA, Homo sapiens, UniProt P42336, E542K)","binding, competition with immobilised ligand",,46
"Atypical kinase COQ8A, mitochondrial (COQ8A, Homo sapiens, UniProt Q8NI60)","kinase binding, KINOMEscan",reference: DMSO control,100
"Tyrosine-protein kinase SYK (SYK, Homo sapiens, UniProt P43405)","kinase binding, KINOMEscan",reference: DMSO control,100
"Ephrin type-A receptor 6 (EPHA6, Homo sapiens, UniProt Q9UF33)","binding, competition with immobilised ligand",,100
"Tyrosine-protein kinase ABL1, non-phosphorylated (ABL1, Homo sapiens, UniProt P00519, Q252H)","kinase binding, KINOMEscan",reference: DMSO control,34
"Citron Rho-interacting kinase (CIT, Homo sapiens, UniProt O14578)","kinase binding, KINOMEscan",reference: DMSO control,99
"Non-receptor tyrosine-protein kinase TYK2, JH2 (TYK2, Homo sapiens, UniProt P29597)","binding, competition with immobilised ligand",,82
"STE20/SPS1-related proline-alanine-rich protein kinase (STK39, Homo sapiens, UniProt Q9UEW8)","binding, competition with immobilised ligand",,99
"Mitogen-activated protein kinase 9 (MAPK9, Homo sapiens, UniProt P45984)","binding, competition with immobilised ligand",,73
"Insulin-like growth factor 1 receptor (IGF1R, Homo sapiens, UniProt P08069)","binding, competition with immobilised ligand",,75
"Tyrosine-protein kinase JAK3 (JAK3, Homo sapiens, UniProt P52333)","kinase binding, KINOMEscan",reference: DMSO control,100

# Set 4
# Target: E3 ubiquitin-protein ligase NEDD4, HECT domain (Homo sapiens, UniProt P46934)
# Effect on: enzyme activity
# Mode: inhibitor
# Method: Ub-TR-FRET
# Matrix: HECT domain
# Concentration: 0.1372 µM
# Direction: higher = more chain formation
# Construct (P46934 938-1319, limits assumed): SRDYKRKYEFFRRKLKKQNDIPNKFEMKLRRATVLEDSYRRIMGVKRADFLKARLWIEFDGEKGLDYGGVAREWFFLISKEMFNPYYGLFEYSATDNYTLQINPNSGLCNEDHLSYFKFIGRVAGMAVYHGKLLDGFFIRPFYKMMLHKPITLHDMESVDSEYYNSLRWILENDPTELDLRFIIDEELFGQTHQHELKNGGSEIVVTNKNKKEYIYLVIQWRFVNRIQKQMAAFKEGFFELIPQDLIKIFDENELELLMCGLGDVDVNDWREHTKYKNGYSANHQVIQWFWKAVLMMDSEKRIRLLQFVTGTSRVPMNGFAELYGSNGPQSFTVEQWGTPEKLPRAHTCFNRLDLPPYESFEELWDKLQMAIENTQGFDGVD
SMILES,ubiquitin chain formation AUC
CCOC(=O)/C=C/CNCCCCN1c2cc(Cl)ccc2CCc2cnn(C)c21.O=C(O)/C=C\C(=O)O,51800 a.u. and 55000 a.u. and 55800 a.u. and 54700 a.u. and 55500 a.u. and 53300 a.u.
CONC(=O)/C=C/CNCCCCN1c2ccccc2CCc2ccc(Cl)cc21.O=C(O)/C=C\C(=O)O,60200 a.u. and 59100 a.u. and 57200 a.u. and 37500 a.u. and 37800 a.u. and 37000 a.u.
CCOC(=O)/C=C/CN(CCCCN1c2ccccc2CCc2ccc(Cl)cc21)C(C)C.O=C(O)/C=C\C(=O)O,79400 a.u. and 81700 a.u. and 81100 a.u. and 82100 a.u. and 82700 a.u. and 80300 a.u.
CNCCCN1c2ccccc2CCc2ccc(Cl)cc21,145000 a.u. and 146000 a.u.
COC(=O)CCCNCCCN1c2ccccc2CCc2ccc(Cl)cc21.COC(=O)CCCNCCCN1c2ccccc2CCc2ccc(Cl)cc21.O=C(O)/C=C/C(=O)O,131000 a.u. and 132000 a.u. and 130000 a.u.
CC(C)ONC(=O)/C=C/CNCCCCN1c2ccccc2CCc2ccc(Cl)cc21.O=C(O)/C=C\C(=O)O,36400 a.u. and 30300 a.u. and 30200 a.u. and 31400 a.u. and 36200 a.u. and 36300 a.u.
CNC(=O)/C=C/CNCCCN1c2ccccc2CCc2ccc(Cl)cc21.Cl,132000 a.u. and 133000 a.u.
CCOC(=O)/C=C/CNCCCCN1c2cc(Cl)ccc2COc2ccccc21.O=C(O)/C=C\C(=O)O,87400 a.u. and 85900 a.u. and 87500 a.u.
CCONC(=O)/C=C/CNCCCCN1c2ccccc2CCc2ccc(Cl)cc21.O=C(O)/C=C\C(=O)O,22200 a.u. and 33200 a.u. and 23700 a.u. and 33900 a.u. and 23800 a.u. and 34000 a.u.

# Repeated from above (set 4):
SMILES,ubiquitin chain formation AUC
CCOC(=O)/C=C/CNCCCCN1c2cc(Cl)ccc2CCc2cnn(C)c21.O=C(O)/C=C\C(=O)O,51800 a.u. and 55000 a.u. and 55800 a.u. and 54700 a.u. and 55500 a.u. and 53300 a.u.
CONC(=O)/C=C/CNCCCCN1c2ccccc2CCc2ccc(Cl)cc21.O=C(O)/C=C\C(=O)O,60200 a.u. and 59100 a.u. and 57200 a.u. and 37500 a.u. and 37800 a.u. and 37000 a.u.
CC(C)ONC(=O)/C=C/CNCCCCN1c2ccccc2CCc2ccc(Cl)cc21.O=C(O)/C=C\C(=O)O,36400 a.u. and 30300 a.u. and 30200 a.u. and 31400 a.u. and 36200 a.u. and 36300 a.u.
